Experimental data of several laboratories.
Each line is one published result; not all experiments were run side by side. ± marks the error that the study gave.

O=C(NCCOCCOCCOCCNC(=O)c1cc2ccccc2c2ccccc12)c1cc(C(=O)N2CCNCCNCCNCC2)c(O)c(C(=O)N2CCNCCNCCNCC2)c1
IC50 (WI-38; cell growth or viability, MTT; 24 h): > 1000 µM

CN1CCC(N[C@H]2CCc3[nH]c4c(C(N)=O)ccc(-c5ccccc5Cl)c4c3C2)CC1
IC50 (U-937; cell growth or viability): 0.22 µM

C[n+]1cc(/C=N/NC(=O)C(=O)N/N=C/c2cc3ccccc3[n+](C)c2)cc2ccccc21
ΔTm (MYC parallel G4 DNA; FRET melting; 1 µM, DNA 0.2 µM): 3.3 ± 0.7 °C

CCNC(=S)NN=Cc1c2ccccc2cc2ccccc12.Cc1ccc(C(C)C)cc1.[Cl-].[Cl-].[Ru+2]
IC50 (Caco-2; cytotoxicity, MTS; 72 h): 205 ± 5 µM

CC#CC#C/C=C1/O[C@@]2(CC[C@@H](OC(C)=O)CO2)[C@H](O)[C@H]1O
IC50 (RAW264.7; NO release, inhibitor, Griess; LPS-stimulated): > 50 µM

CC[C@H](C)[C@H](NC(=O)[C@H](CCCCN)NC(=O)[C@H]1CCC[C@@H]1NC(=O)[C@H](CC(C)C)NC(=O)CN)C(=O)N[C@H](CC(=O)N[C@@H](CCCCN)C(=O)N[C@@H](CCCCN)C(=O)N[C@H]1CCC[C@@H]1C(=O)N[C@@H](CC(C)C)C(=O)N[C@@H](CCCCN)C(=O)N[C@@H](CO)CC(=O)N[C@@H](Cc1ccccc1)C(N)=O)[C@@H](C)CC
IC50 (NIH 3T3; cytotoxicity): 25.4 µg/mL

C=CC(=O)N1CCCC(n2c(=O)c3ncccc3n(Cc3ccc(Oc4ccccc4)cc3)c2=O)C1 (stereo not shown)
IC50 (UPN1; cell growth or viability, MTT; 72 h): 0.12 µM

CC[C@H](C)[C@H](NC(=O)[C@H](CCCCN)NC(=O)[C@H](Cc1ccccc1)NC(=O)[C@H]1CCC[C@@H]1NC(=O)CN)C(=O)N[C@H](CC(=O)N[C@@H](CCCCN)C(=O)N[C@@H](CCCCN)C(=O)N[C@H]1CCC[C@@H]1C(=O)N[C@@H](C)C(=O)N[C@@H](CCC(=O)O)C(=O)N[C@@H](CO)C(=O)N[C@H](CC(N)=O)Cc1ccccc1)[C@@H](C)CC
IC50 (NIH 3T3; cytotoxicity): 102 µg/mL

O=C(NCc1cc(F)cc(F)c1)[C@@]1(O)CCN(c2ccc3[nH]ccc3c2)C1=O
IC50 (PC-9; cell growth or viability): 17 µM

C=CCOCO[C@H](C(=O)NC[C@@H]1C[C@@H](OC)C(C)(C)[C@@H](C[C@@H](COC)OC)O1)[C@@]1(OC)CC(=C)[C@@H](C)[C@@H](C)O1
IC50 (RAW264.7; cell viability, sulforhodamine B; 48 h, 37 °C, together with: 100 µM H2O2): 0.603 ± 0.115 µM

Cc1ccnc(-c2cc(C(=O)O)ccn2)c1.F[P-](F)(F)(F)(F)F.F[P-](F)(F)(F)(F)F.[Ru+2].c1ccc(-c2ccccn2)nc1.c1ccc(-c2ccccn2)nc1
IC50 (MCF-10A; cell viability; 48 h, dark): > 100 µM

C#CC[C@]1(O)C[C@H](C)N2CCc3cc(OCc4cc(C)cc(C)c4)c(OCc4cc(C)cc(C)c4)cc3[C@@H]2C1 (relative stereo)
IC50 (ASPC1; cell growth or viability, MTT): 0.802 µM

CS(=O)(=O)c1sc(NC(=O)Nc2ccc(Cl)cc2)c2c1C=CCC2
IC50 (PANC-1 NUPR1 knockout clone KO1; cell viability; 72 h): 22 µM

COc1cc(-c2cn(C)c(=O)c3cnccc23)c(OC)cc1Cn1ccnc1
IC50 (MOLM-13; cell growth or viability, ATP luminescence): 4 µM

CC[C@H](C)[C@H](NC(=O)[C@H](CCCCN)NC(=O)[C@H](CCCCN)NC(=O)[C@@H](NC(=O)[C@@H](NC(=O)[C@H](CC(=O)O)NC(=O)[C@H](Cc1ccccc1)NC(=O)[C@H](CC(C)C)NC(=O)CN)[C@@H](C)CC)[C@@H](C)CC)C(=O)N[C@@H](C)C(=O)N[C@@H](CCC(=O)O)C(=O)N[C@@H](CO)C(=O)N[C@@H](Cc1ccccc1)C(N)=O
IC50 (NIH 3T3; cytotoxicity): 56.1 µg/mL

Nc1ncc(-c2cc(-c3cnn(CC(F)(F)F)c3)ncc2F)nc1C(=O)NC1CNCC(F)C1 (stereo not shown)
IC50 (DLD-1 BRCA2 knockout; cell viability): 0.007 µM

CCOc1cncc(-c2ccc(NC(=O)C3(c4ccnc(NS(=O)(=O)C5CC5)n4)CCOCC3)nc2)n1
IC50 (SNU-449; cell proliferation, CellTiter-Glo; 72 h): 10 µM

NCCCn1cc(COc2cc(C(=O)Nc3cc(OCCN)c4ccccc4n3)nc(C(=O)Nc3cc(OCCN)c4ccccc4n3)c2)nn1
IC50 (WI-38; cell growth or viability, ATP luminescence; 72 h): > 40 µM

Cc1cc(C)cc(NC(=O)N(Cc2ccc(C(=O)NO)cc2)OCc2ccccc2)c1
IC50 (MOLM-13; cell viability; 72 h): 1.7 ± 0.069 µM

NCCOc1cc(NC(=O)c2cc(Cl)cc(C(=O)Nc3cc(OCCN)c4ccccc4n3)n2)nc2ccccc12
IC50 (WI-38; cell growth or viability, ATP luminescence; 72 h): 1.6 µM

COc1cc(-c2cc(C(C)=O)n3ccccc23)c(OC)cc1Cn1ccnc1
IC50 (EOL1; cell growth or viability, ATP luminescence): 0.061 µM

NC(=O)c1ccc(-c2ccccc2Cl)c2c3c([nH]c12)CC[C@@H](N)C3
IC50 (U-937; cell growth or viability): 0.00893 µM

CNS(=O)(=O)Nc1nccc(Cc2c(C)c3ccc(Oc4ncccc4F)cc3oc2=O)c1F
IC50 (HPAC; cell viability; 7 days): 0.00573 µM

Cn1ncc(-c2ccc3c(=O)[nH]nc(CN)c3c2)c1-c1c(F)c(Cl)cc(OC2CC2)c1C#N
IC50 (NCI-H1651; cell viability, inhibitor, CellTiter-Glo; 120 h, baseline-subtracted): 0.05 µM

CC(C)(C)c1cnc(CSc2cnc(NC(=O)C3CCN(C(=O)CCCCCCN4Cc5cc6c(cc5C4)C(=O)N(C4CCC(=O)NC4=O)C6=O)CC3)s2)o1 (stereo not shown)
IC50 (U-87 MG glioblastoma; cell viability, MTT): 0.0794 ± 0.002 µM

CCN(C(=O)c1cc(F)ccc1Oc1nncnc1N1CCC2(C1)CN(C(CCCN(C)CCOC)C(C)C)C2)C(C)C (stereo not shown)
IC50 (MOLM-14; QuantiGene, item: FLT3 mRNA): > 2.4 µM

O=C(OCc1ccc(O[C@@H]2O[C@H](CO)[C@@H](O)[C@H](O)[C@H]2O)cc1)c1ccc(O)cc1
IC50 (MDA-MB-231 breast cancer; cell viability, MTT; DMEM with 10% FBS; 48 h): > 200 µM

COc1ccc(C([O-])=CC(=O)c2ccc(C(C)(C)C)cc2)cc1.[Cl-].[Ru+2].c1ccc(-c2cccc(-c3ccccn3)n2)nc1
IC50 (HL-60; phototoxicity; light over 450 nm, 29.1 J/cm2): 0.45 µM

CC[C@H](C)[C@H](NC(=O)[C@H]1CCC[C@@H]1NC(=O)[C@H](CCCCN)NC(=O)[C@H](CCCCN)NC(=O)C[C@H](C)NC(=O)[C@H](CC(C)C)NC(=O)[C@H](CCCCN)NC(=O)[C@H]1CCC[C@@H]1NC(=O)[C@H](CC(C)C)NC(=O)CN)C(=O)N[C@@H](CCCCN)C(=O)N[C@@H](CO)CC(=O)N[C@@H](Cc1ccccc1)C(N)=O
IC50 (NIH 3T3; cytotoxicity): 355 µg/mL

O=C(N/N=C/c1ccc(C[n+]2ccccc2)cc1)N/N=C/c1ccc(C[n+]2ccccc2)cc1
ΔTm (MYC parallel G4 DNA; FRET melting; 1 µM, DNA 0.2 µM, together with: duplex DNA competitor 10 µM): 3.6 ± 0.1 °C

CC1C(O)CC2(CO)CCC3(C)C(=CCC4C(C)(CCC(=O)O)C(C(C)(O)CO)CCC43C)C2C1C (stereo not shown)
IC50 (RAW264.7; NO release, inhibitor, Griess; LPS-stimulated): > 100 µM

CC(C)c1ccc(N(C)c2ccc3c(c2)OCC[C@H]3CNc2cnccc2C(=O)O)cc1
IC50 (SW1417; cell viability, CellTiter-Glo; 7 days): ≥ 10 µM

Cc1cc(C)cc(COc2cc3c(cc2OCc2cc(C)cc(C)c2)C2CC(O)CC(C)N2CC3)c1 (stereo not shown)
IC50 (ASPC1; cell growth or viability, MTT): 0.965 µM

CC[C@H](C)[C@H](NC(=O)C[C@H](CCCCN)NC(=O)[C@H](CCCCN)NC(=O)C[C@@H](NC(=O)[C@@H](NC(=O)C[C@H](CCCCN)NC(=O)[C@H](Cc1ccccc1)NC(=O)C[C@H](CC(C)C)NC(=O)CN)[C@@H](C)CC)[C@@H](C)CC)C(=O)N[C@H](CC(=O)N[C@@H](CCCCN)C(=O)N[C@@H](CO)CC(=O)N[C@@H](Cc1ccccc1)C(N)=O)CC(C)C
IC50 (NIH 3T3; cytotoxicity): 20.2 µg/mL

COc1cc2ncnc(Nc3ccc(F)c(Cl)c3)c2cc1NC(=O)/C=C/CN1CCCCC1
IC50 (Ba/F3 EGFR; cell growth or viability; 72 h): 0.034 µM

COc1cc(-c2cn(C)c(=O)c3cnccc23)cc(OC)c1Cn1ccnc1
IC50 (MOLM-13; cell growth or viability, ATP luminescence): 12.6 µM

CC(C)C[C@](O)(C(=O)OCc1ccc(O[C@@H]2O[C@H](CO)[C@@H](O)[C@H](O)[C@H]2O)cc1)[C@H](O)C(=O)OCc1ccc(O[C@@H]2O[C@H](CO)[C@@H](O)[C@H](O)[C@H]2O)cc1
IC50 (MDA-MB-231 breast cancer; cell viability, MTT; DMEM with 10% FBS; 48 h): > 200 µM

For quick reference, copied from above:
NC(=O)c1ccc(-c2ccccc2Cl)c2c3c([nH]c12)CC[C@@H](N)C3
IC50 (U-937; cell growth or viability): 0.00893 µM

CC1C(O)CC2(CO)CCC3(C)C(=CCC4C(C)(CCC(=O)O)C(C(C)(O)CO)CCC43C)C2C1C (stereo not shown)
IC50 (RAW264.7; NO release, inhibitor, Griess; LPS-stimulated): > 100 µM

C=CC(=O)N1CCCC(n2c(=O)c3ncccc3n(Cc3ccc(Oc4ccccc4)cc3)c2=O)C1 (stereo not shown)
IC50 (UPN1; cell growth or viability, MTT; 72 h): 0.12 µM

O=C(N/N=C/c1ccc(C[n+]2ccccc2)cc1)N/N=C/c1ccc(C[n+]2ccccc2)cc1
ΔTm (MYC parallel G4 DNA; FRET melting; 1 µM, DNA 0.2 µM, together with: duplex DNA competitor 10 µM): 3.6 ± 0.1 °C

COc1cc(-c2cn(C)c(=O)c3cnccc23)c(OC)cc1Cn1ccnc1
IC50 (MOLM-13; cell growth or viability, ATP luminescence): 4 µM

COc1ccc(C([O-])=CC(=O)c2ccc(C(C)(C)C)cc2)cc1.[Cl-].[Ru+2].c1ccc(-c2cccc(-c3ccccn3)n2)nc1
IC50 (HL-60; phototoxicity; light over 450 nm, 29.1 J/cm2): 0.45 µM
